{"sequences": {"note": "By UniProt entry, the sequences of proteins in these tests, tags left out.", "UniProt P45983, whole entry": "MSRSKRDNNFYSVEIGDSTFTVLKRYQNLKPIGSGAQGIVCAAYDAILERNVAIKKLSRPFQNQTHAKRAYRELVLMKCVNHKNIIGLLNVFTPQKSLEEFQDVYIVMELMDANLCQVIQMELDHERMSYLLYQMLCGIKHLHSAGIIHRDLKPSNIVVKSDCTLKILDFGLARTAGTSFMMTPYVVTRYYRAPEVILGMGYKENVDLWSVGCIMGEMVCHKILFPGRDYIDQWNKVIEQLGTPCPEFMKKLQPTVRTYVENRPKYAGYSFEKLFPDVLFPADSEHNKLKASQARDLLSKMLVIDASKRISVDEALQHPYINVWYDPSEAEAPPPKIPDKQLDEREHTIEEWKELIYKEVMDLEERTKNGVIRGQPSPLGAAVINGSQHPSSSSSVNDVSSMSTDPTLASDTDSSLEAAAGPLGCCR", "UniProt Q99640, whole entry": "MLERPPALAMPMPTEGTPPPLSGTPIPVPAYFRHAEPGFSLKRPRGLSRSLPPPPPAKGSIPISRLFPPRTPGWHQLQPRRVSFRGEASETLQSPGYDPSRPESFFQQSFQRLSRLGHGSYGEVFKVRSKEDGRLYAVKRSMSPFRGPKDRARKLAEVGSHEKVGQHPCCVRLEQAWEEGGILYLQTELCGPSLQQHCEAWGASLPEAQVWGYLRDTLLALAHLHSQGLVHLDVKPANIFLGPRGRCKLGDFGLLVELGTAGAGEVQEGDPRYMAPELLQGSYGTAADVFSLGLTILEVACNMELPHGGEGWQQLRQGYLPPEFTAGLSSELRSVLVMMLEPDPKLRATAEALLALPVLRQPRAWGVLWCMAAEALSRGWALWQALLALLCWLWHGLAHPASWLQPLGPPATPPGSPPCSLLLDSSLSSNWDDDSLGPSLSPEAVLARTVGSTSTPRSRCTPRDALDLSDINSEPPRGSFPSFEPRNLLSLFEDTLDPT"}, "data": "Published values from different studies", "note": "Numbers after ± are the reported error."}
{"Structure (SMILES)": "CS(=O)(=O)NC(=O)CCc1cn(-c2ccc(Br)cc2)nc1-c1ccc(Cl)cc1", "tested on": "Mycobacterium tuberculosis", "test": "OD600", "system": "QcrB A317T mutant", "measurement": "MIC", "result": "4 µM"}
{"Structure (SMILES)": "CCc1nc(N)nc(N)c1C#C[C@@H](C)c1cc(OC)cc(-c2ccc(C(=O)O)cc2)c1", "tested on": "Mycobacterium tuberculosis", "test": "broth microdilution", "system": "Erdman ATCC 35801", "measurement": "MIC", "result": "0.03 µg/mL"}
{"Structure (SMILES)": "O=c1ccc2nc3ccc(O)cc3oc-2c1", "tested on": "Mycobacterium tuberculosis", "system": "mc2 6206 bedaquiline-resistant MmpL5 regulator mutant", "setting": "7 days", "measurement": "MIC90", "result": "235 µM"}
{"Structure (SMILES)": "CC#C/C(=N\\OC[C@H]1COCCN1)c1ccc2ncnc(Nc3ccc(OCc4cccc(F)c4)c(Cl)c3)c2c1", "tested on": "Mitogen-activated protein kinase 8 (MAPK8, Homo sapiens, UniProt P45983)", "test": "kinase activity", "setting": "10 µM", "measurement": "inhibition", "result": "4.8%"}
{"Structure (SMILES)": "CS(=O)(=O)NC(=O)NCc1cc(-c2ccc(Br)cc2)oc1-c1ccncc1", "tested on": "Mycobacterium tuberculosis", "system": "MmpL3 G758A mutant", "measurement": "MIC", "result": "0.5 µM"}
{"Structure (SMILES)": "CCc1nc(N)nc(N)c1C#CCc1cc(OC)cc(-c2ccc(C(=O)O)cc2)c1", "tested on": "Mycobacterium tuberculosis", "test": "broth microdilution", "system": "Erdman ATCC 35801", "measurement": "MIC", "result": "0.125 µg/mL"}
{"Structure (SMILES)": "Cn1cc([N+](=O)[O-])nc1COc1ccc2nc3ccc(=O)cc-3oc2c1", "tested on": "Mycobacterium tuberculosis", "system": "mc2 6206 clofazimine-resistant fbiC mutant", "setting": "7 days", "measurement": "MIC90", "result": "> 256 µM"}
{"Structure (SMILES)": "O=c1oc(-c2ccccn2)ns1", "tested on": "Mycobacterium tuberculosis", "system": "Erdman", "setting": "50 µM, 4 days, pH 7.4, nitric oxide non-replicating state, with: DETA-NO", "measurement": "reduction in viable count", "result": "1.8 log CFU"}
{"Structure (SMILES)": "O=c1[nH]c(CC2CCCCC2)cc(O)c1-c1ccccc1", "tested on": "Mycobacterium tuberculosis", "system": "H37Rv", "measurement": "MIC99", "result": "0.31 µM"}
{"Structure (SMILES)": "COC(=O)COc1ccc2nc3ccc(=O)cc-3oc2c1", "tested on": "Mycobacterium tuberculosis", "system": "mc2 6206 PA-824-resistant ddn mutant", "setting": "7 days", "measurement": "MIC90", "result": "74 µM"}
{"Structure (SMILES)": "CS(=O)(=O)NC(=O)NCc1cn(-c2ccc(Cl)cc2)nc1-c1ccncc1", "tested on": "Mycobacterium tuberculosis", "system": "MmpL3 G758A mutant", "measurement": "MIC", "result": "1 µM"}
{"Structure (SMILES)": "O=c1ccc2nc3ccc(OCc4ccccc4)cc3oc-2c1I", "tested on": "Mycobacterium tuberculosis", "system": "mc2 6206 bedaquiline-resistant MmpL5 regulator mutant", "setting": "7 days", "measurement": "MIC90", "result": "> 256 µM"}
{"Structure (SMILES)": "CCN1CCN(Cc2ccc(NC(=O)c3ccc(C)c(/C=C/c4cnc5[nH]ccc5c4OC)c3)cc2C(F)(F)F)CC1", "tested on": "Membrane-associated tyrosine- and threonine-specific cdc2-inhibitory kinase, with CDC37 (PKMYT1, Homo sapiens, UniProt Q99640)", "test": "inhibitor", "setting": "5 µM", "how to read": "baseline: no inhibitor", "measurement": "log2 fold change", "result": 0.286}
{"Structure (SMILES)": "CSCOc1ccc2nc3ccc(=O)cc-3oc2c1", "tested on": "Mycobacterium tuberculosis", "system": "mc2 6206 bedaquiline-resistant MmpL5 regulator mutant", "setting": "7 days", "measurement": "MIC90", "result": "68 µM"}
{"Structure (SMILES)": "NNC(=O)c1ccncc1", "tested on": "Mycobacterium tuberculosis", "system": "EthA C253R mutant", "measurement": "MIC", "result": "7.8 µM"}
{"Structure (SMILES)": "FC(F)(F)Oc1ccc(Oc2ccc(CNCCNC3C4CC5CC(C4)CC3C5)cc2)cc1 (centres unmarked)", "tested on": "Mycobacterium tuberculosis", "test": "growth", "system": "H37Rv mutant MmpL3 F644L", "measurement": "MIC", "result": "9.2 µg/mL"}
{"Structure (SMILES)": "CCOc1ccc2nc3ccc(=O)cc-3oc2c1", "tested on": "Mycobacterium tuberculosis", "system": "mc2 6206 PA-824-resistant ddn mutant", "setting": "7 days", "measurement": "MIC90", "result": "29 µM"}
{"Structure (SMILES)": "COc1c(C)c(-c2ccc(Cc3ccccc3)cc2)nc2ccccc12", "tested on": "Mycobacterium tuberculosis", "test": "growth, MABA", "system": "H37Rv", "setting": "aerobic", "measurement": "IC50", "result": "2890 ± 110 nM"}
{"Structure (SMILES)": "CC1(C)CCC(Cc2cc(O)c(-c3ccccc3)c(=O)[nH]2)CC1", "tested on": "Mycobacterium tuberculosis", "system": "H37Rv", "measurement": "MIC99", "result": "0.08 µM"}
{"Structure (SMILES)": "O=c1oc(-c2ccc([N+](=O)[O-])cc2)ns1", "tested on": "Mycobacterium tuberculosis", "system": "Erdman", "setting": "50 µM, 4 days, pH 7.4, nitric oxide non-replicating state, with: DETA-NO", "measurement": "reduction in viable count", "result": "1.7 log CFU"}
{"note": "A few entries again:"}
{"Structure (SMILES)": "O=c1ccc2nc3ccc(O)cc3oc-2c1", "tested on": "Mycobacterium tuberculosis", "system": "mc2 6206 bedaquiline-resistant MmpL5 regulator mutant", "setting": "7 days", "measurement": "MIC90", "result": "235 µM"}
{"Structure (SMILES)": "CC#C/C(=N\\OC[C@H]1COCCN1)c1ccc2ncnc(Nc3ccc(OCc4cccc(F)c4)c(Cl)c3)c2c1", "tested on": "Mitogen-activated protein kinase 8 (MAPK8, Homo sapiens, UniProt P45983)", "test": "kinase activity", "setting": "10 µM", "measurement": "inhibition", "result": "4.8%"}
